{"data": "Assay results collected from several papers", "note": "Compare with care: the assays were run in different laboratories. “And” joins repeats or separate records; there may be more than shown."}
{"SMILES": "CC(C)c1ccc(N(C)c2ccc3c(c2)OCC[C@H]3CNc2cnccc2C(=O)O)cc1", "cell line": "TE4", "assay": "cell viability, CellTiter-Glo", "setting": "7 days", "quantity": "IC50", "value": "0.0127 µM"}
{"SMILES": "CNS(=O)(=O)Nc1nccc(Cc2c(C)c3ccc(Oc4ncccc4F)cc3oc2=O)c1F", "cell line": "NCI-H2228", "assay": "cell viability", "setting": "7 days", "quantity": "IC50", "value": "> 1 µM"}
{"SMILES": "CCC(=CCc1c(O)cc2c(c1O)C(=O)CC(c1ccc(O)cc1)O2)CC (stereo not drawn)", "cell line": "HeLa", "assay": "flow cytometry", "setting": "24 µM, 48 h", "quantity": "active caspase-3 cells", "value": "15.7%"}
{"SMILES": "Cc1c(Cl)cccc1Nc1ccccc1C(=O)[Se]CC(=O)Nc1cccc(C(F)(F)F)c1", "cell line": "NCI60 renal subpanel", "assay": "total growth inhibition, inhibitor", "setting": "five-dose", "quantity": "mean TGI", "value": "3.39 µM"}
{"SMILES": "CC[C@@H](C)[C@@H](NC(=O)[C@@H](Cc1ccc(O)cc1)NC(=O)[C@H]1CCCN1C(=O)[C@@H](CCCNC(=N)N)NC(=O)[C@H](N)Cc1c[nH]cn1)C(=O)N[C@H](C)C(=O)N[C@H](Cc1c[nH]cn1)C(=O)N[C@H](CCCNC(=N)N)C(=O)N[C@@H](C(=O)N[C@H](Cc1ccc(O)cc1)C(=O)N[C@H](CO)C(=O)N[C@H](Cc1ccccc1)C(=O)NCC(=O)NCC(=O)NCC(=O)N[C@@H](CCCCNC(=O)CCCC[C@@H]1SC[C@@H]2NC(=O)N[C@@H]21)C(N)=O)C(C)C", "cell line": "HEK293T-GFP cells", "assay": "flow cytometry", "setting": "concentration not given, with: biotin-labelled peptide", "quantity": "binding rate", "value": "37.6% and 38.8% and 37.4%"}
{"SMILES": "Cc1cc(NC2CCN(C)CC2)ccc1-c1cc2c(N3CCC[C@H](C(=O)NCc4ccc(OC(F)(F)F)cc4)C3)ncnc2[nH]1", "cell line": "NCI-H2228", "assay": "cell growth or viability, MTT", "setting": "1 µg/mL, 72 h", "quantity": "inhibition", "value": "95.2%"}
{"SMILES": "O=C(C[Se]C(=O)c1ccc2ccccc2n1)Nc1cccc(C(F)(F)F)c1", "cell line": "NCI60 renal subpanel", "assay": "cell growth", "setting": "10 µM, 48 h, one-dose", "quantity": "mean growth percent", "value": "-90%"}
{"SMILES": "COC(=O)c1cc(NC2=NC(=O)C(=Cc3ccc(C)cc3)S2)ccc1OC(C)=O", "cell line": "MCF7", "assay": "GC-MS, item: diacetone alcohol", "setting": "1 µM", "scale": "baseline: DMSO", "quantity": "metabolite level", "value": "-1.11 fold change"}
{"SMILES": "CCN(CC)CC(=O)Nc1cccc(-n2cc(-c3ccc4ccc(-c5cn(-c6cccc(NC(=O)CN(CC)CC)c6)nn5)cc4c3)nn2)c1", "cell line": "RCC4", "assay": "PCR angiogenesis array, item: CCL2", "setting": "5 x IC50, 4 h, normoxia", "scale": "baseline: untreated", "quantity": "fold regulation", "value": -1.04}
{"SMILES": "Cc1cc(Cl)cc(-c2ccnc3cc(CN4C(=O)C5C(C4=O)C5(C)C)sc23)c1C[C@@H]1CNCCO1 (stereo partly drawn)", "cell line": "CHP-212 resistant", "assay": "PI flow cytometry", "setting": "0.3 µM, 24 h", "quantity": "G1 phase cells", "value": "72.7%"}
{"SMILES": "O=C(NCc1ccc(OC(F)(F)F)cc1)[C@H]1CCCN(c2ncnc3[nH]c(-c4ccc(C(F)(F)F)cc4)cc23)C1", "cell line": "NCI-H2228", "assay": "cell growth or viability, MTT", "setting": "1 µg/mL, 72 h", "quantity": "inhibition", "value": "31.7%"}
{"SMILES": "O=C(CSc1cccc[n+]1[O-])c1ccccc1Br", "cell line": "LDR", "assay": "silenced CMV-GFP reporter derepression, qHTS", "quantity": "efficacy", "value": "80%"}
{"SMILES": "Cc1ncsc1-c1ccc(C(C)NC(=O)C2CC(O)CN2C(=O)C(NC(=O)CCCCCCCCCCN2CCCC(Nc3ncc(Cl)c(Nc4ccccc4S(=O)(=O)C(C)C)n3)C2)C(C)(C)C)cc1 (stereo not drawn)", "cell line": "22Rv1", "assay": "RNA-seq, item: RNF146 mRNA", "setting": "concentration not given", "scale": "baseline: DMSO", "quantity": "log2 fold change", "value": -1.54}
{"SMILES": "CCN(C(=O)c1cc(F)ccc1Oc1nncnc1N1CCC2(C1)CN([C@H](CCCN(C)CCOC)C(C)C)C2)C(C)C", "cell line": "NCI-H82", "assay": "cell growth or viability", "setting": "72 h", "quantity": "GI50", "value": "> 10 µM"}
{"SMILES": "O=C(NCc1ccc(OC(F)(F)F)cc1)[C@H]1CCCN(c2ncnc3[nH]c(-c4ccncc4)cc23)C1", "cell line": "NCI-H2228", "assay": "cell growth or viability, MTT", "setting": "0.04 µg/mL, 72 h", "quantity": "inhibition", "value": "49.6%"}
{"SMILES": "CN1CCCNC(=O)c2cccc(c2)C(=O)NCCCN(C)CCCNc2cccc3c2C(=O)c2cccc(c2C3=O)NCCC1", "cell line": "SAS", "assay": "RNA-Seq, item: RFWD3 mRNA", "setting": "1 µM, 6 h", "scale": "baseline: untreated cells", "quantity": "log2 fold change", "value": 0.493}
{"SMILES": "O=[N+]([O-])C(=C\\Nc1ccccc1O)/C=N/c1ccccc1O", "cell line": "LDR", "assay": "silenced CMV-GFP reporter derepression, qHTS", "quantity": "efficacy", "value": "21%"}
{"SMILES": "CO[C@@H]1[C@@H](OC(N)=O)[C@@H](O)[C@H](Oc2ccc3c(O)c(NC(=O)c4ccc(O)c(CC=C(C)C)c4)c(=O)oc3c2C)OC1(C)C", "cell line": "HCT-116 BRCA2 wild-type", "setting": "250 µM, mean of replicates A, B", "scale": "baseline: untreated", "quantity": "colony survival", "value": "41.3%"}
{"note": "Some of these lines once more:"}
{"SMILES": "O=[N+]([O-])C(=C\\Nc1ccccc1O)/C=N/c1ccccc1O", "cell line": "LDR", "assay": "silenced CMV-GFP reporter derepression, qHTS", "quantity": "efficacy", "value": "21%"}
{"SMILES": "CO[C@@H]1[C@@H](OC(N)=O)[C@@H](O)[C@H](Oc2ccc3c(O)c(NC(=O)c4ccc(O)c(CC=C(C)C)c4)c(=O)oc3c2C)OC1(C)C", "cell line": "HCT-116 BRCA2 wild-type", "setting": "250 µM, mean of replicates A, B", "scale": "baseline: untreated", "quantity": "colony survival", "value": "41.3%"}
{"SMILES": "Cc1ncsc1-c1ccc(C(C)NC(=O)C2CC(O)CN2C(=O)C(NC(=O)CCCCCCCCCCN2CCCC(Nc3ncc(Cl)c(Nc4ccccc4S(=O)(=O)C(C)C)n3)C2)C(C)(C)C)cc1 (stereo not drawn)", "cell line": "22Rv1", "assay": "RNA-seq, item: RNF146 mRNA", "setting": "concentration not given", "scale": "baseline: DMSO", "quantity": "log2 fold change", "value": -1.54}
